Measured values collected from several papers.
± gives the spread as reported.

| SMILES | assay | system | conditions | tissue uptake |
| --- | --- | --- | --- | --- |
| CC(C)C[C@H](NC(=O)[C@H](Cc1ccc(O)cc1)NC(=O)[C@@H](CCCNC(=N)N)NC(=O)[C@@H](CO)NC(=O)[C@H](Cc1ccccc1)NC(=O)[C@H](CC1CCCCC1)NC(=O)[C@H](CC(=O)O)NC(=O)CN1CCCN2CCN(CCCN(CC(=O)O)CC2)CC1)C(=O)N[C@@H](Cc1c[nH]c2ccccc12)C(=O)N[C@@H](CO)C(=O)O [copper-64 labelled] | – | female NMRI nude mice, lung | 1 h p.i. | 5.5 ± 1.4 %ID/g |
| CC(C)C[C@@H](NC(=O)[C@@H](CCC(=O)O)NC(=O)[C@@H](CC(C)C)NC(=O)[C@@H](CC(C)C)NC(=O)[C@@H](CC(C)C)NC(=O)[C@H](NC(=O)[C@@H](CCC(=O)O)NC(=O)[C@H](NC(=O)[C@H]1CCCN1C(=O)[C@@H](Cc1ccccc1)NC(=O)[C@@H](CC(C)C)NC(=O)[C@@H](Cc1c[nH]c2ccccc12)NC(=O)[C@@H](CCC(=O)O)NC(=O)[C@@H](CC(C)C)NC(=O)[C@@H](Cc1ccc(O)cc1)NC(=O)[C@@H](CCCNC(=N)N)NC(=O)[C@@H](C)NC(=O)[C@@H](Cc1c[nH]c2ccccc12)NC(=O)[C@H]1CCCN1C(=O)[C@@H](CC(N)=O)NC(=O)[C@@H](CCC(N)=O)NC(=O)[C@@H](CCC(=O)O)NC(=O)[C@@H](CCC(=O)O)NC(=O)[C@@H](CSC1CC(=O)N(CCNC(=O)CN2CCN(CC(=O)O)CCN(CC(=O)O)CC2)C1=O)NC(=O)[C@@H](C)N)[C@H](C)O)[C@H](C)O)C(=O)O (some centres unmarked) [copper-64 labelled] | – | BALB/c mice, female, 4T1 orthotopic tumour, small intestine | intravenous, 4 h | 6.37 ± 0.11 %ID/g |
| N=C(N)NCCC[C@@H]1NC(=O)[C@H](CCCCNC(=O)CC[C@H](NC(=O)CC[C@H](NC(=O)CN2CCN(CC(=O)O)CCN(CC(=O)O)CCN(CC(=O)O)CC2)C(=O)N[C@@H](CCC(=O)NCCCC[C@@H]2NC(=O)[C@@H](Cc3ccccc3)NC(=O)[C@H](CC(=O)O)NC(=O)CNC(=O)[C@H](CCCNC(=N)N)NC2=O)C(=O)NCCCC[C@@H]2NC(=O)[C@@H](Cc3ccccc3)NC(=O)[C@H](CC(=O)O)NC(=O)CNC(=O)[C@H](CCCNC(=N)N)NC2=O)C(=O)NCCCC[C@@H]2NC(=O)[C@@H](Cc3ccccc3)NC(=O)[C@H](CC(=O)O)NC(=O)CNC(=O)[C@H](CCCNC(=N)N)NC2=O)NC(=O)[C@@H](Cc2ccccc2)NC(=O)[C@H](CC(=O)O)NC(=O)CNC1=O [indium-111 labelled] | – | female athymic nu/nu mice, blood | intravenous, 24 h | 0.04 ± 0.01 %ID/g |
| CSCC[C@H](NC(=O)[C@H](CC(C)C)NC(=O)[C@H](Cc1c[nH]cn1)NC(=O)CNC(=O)[C@@H](NC(=O)[C@H](C)NC(=O)[C@H](Cc1c[nH]c2ccccc12)NC(=O)[C@H](CCC(N)=O)NC(=O)CCOCCOCCOCCOCCNC(=O)CN1CCN(CC(=O)O)CCN(CC(=O)O)CCN(CC(=O)O)CC1)C(C)C)C(N)=O [indium-111 labelled] | – | male Swiss nu/nu mice, PC-3 tumour, kidney | intravenous, 10 pmol, 24 h | 0.7 ± 0.4 %ID/g |
| CC(C)C[C@@H](NC(=O)[C@@H](CC(C)C)NC(=O)[C@@H](CC(=O)O)NC(=O)[C@@H](CC(C)C)NC(=O)[C@@H](CC(C)C)NC(=O)[C@@H](CC(C)C)NC(=O)[C@H](NC(=O)[C@@H](CC(=O)O)NC(=O)[C@H](NC(=O)[C@H]1CCCN1C(=O)[C@@H](Cc1ccccc1)NC(=O)[C@@H](CC(C)C)NC(=O)[C@@H](CC(C)C)NC(=O)[C@@H](CC(=O)O)NC(=O)[C@@H](CC(C)C)NC(=O)[C@@H](Cc1ccc(O)cc1)NC(=O)[C@@H](C)NC(=O)[C@@H](CCCNC(=N)N)NC(=O)[C@@H](Cc1c[nH]c2ccccc12)NC(=O)[C@H]1CCCN1C(=O)[C@@H](CC(N)=O)NC(=O)[C@@H](CCC(N)=O)NC(=O)[C@@H](CC(=O)O)NC(=O)[C@@H](CC(=O)O)NC(=O)[C@@H](CS)NC(=O)[C@@H](C)NC(=S)Nc1ccc(CC2CN(CC(=O)O)CCN(CC(=O)O)CCN2CC(=O)O)cc1)[C@H](C)O)[C@H](C)O)C(=O)N[C@H](Cc1c[nH]c2ccccc12)C(=O)O (some centres unmarked) [copper-64 labelled] | – | BALB/c mice, female, 4T1 orthotopic tumour, large intestine | intravenous, 4 h | 7.45 ± 2.73 %ID/g |
| CN1C(=O)[C@@H](Cc2ccc(O)cc2)NC(=O)CNC(=O)[C@H](Cc2ccc3ccccc3c2)NC(=O)[C@H](CCCNC(=N)N)NC(=O)[C@H]1CCCNC(=O)c1ccc(CNC(=O)CN2CCN(CC(=O)O)CCN(CC(=O)O)CCN(CC(=O)O)CC2)cc1 [gallium-68 labelled] | – | SCID mice, lymphoma xenograft, heart | intravenous, 1 h | 1.2 ± 0.1 %ID/g |
| CCCC[C@H](NC(=O)CNC(=O)CNC(=O)CN1CCN(CC(=O)O)CCN(CC(=O)O)CC1)C(=O)N[C@H]1CC(=O)NCCCC[C@@H](C(N)=O)NC(=O)[C@H](Cc2c[nH]c3ccccc23)NC(=O)[C@H](CCCNC(=N)N)NC(=O)[C@@H](Cc2ccccc2)NC(=O)[C@H](Cc2c[nH]cn2)NC1=O [technetium-99m labelled] | – | C57 mice, intestines | intravenous, 0.037 MBq, 0.5 h | 2.41 ± 0.31 %ID |
| N=C(N)NCCC[C@@H]1NC(=O)[C@H](CCCCNC(=O)CN2CCN(CC(=O)O)CCN(CC(=O)O)CCN(CC(=O)O)CC2)NC(=O)[C@@H](Cc2ccc(O)cc2)NC(=O)[C@H](CC(=O)O)NC(=O)CNC1=O [copper-64 labelled] | 64Cu microPET | female nude mice, U-87 MG xenograft, liver | intravenous, 4 h | 3.59 ± 0.87 %ID/g |
| CCCC[C@H](NC(=O)COCCOCCNC(=O)CN1CCN(CC(=O)O)CCN(CC(=O)O)CC1)C(=O)N[C@H]1CC(=O)NCCCC[C@@H](C(N)=O)NC(=O)[C@H](Cc2c[nH]c3ccccc23)NC(=O)[C@H](CCCNC(=N)N)NC(=O)[C@@H](Cc2ccccc2)NC(=O)[C@H](Cc2c[nH]cn2)NC1=O [copper-64 labelled] | – | C57 mice, bone | intravenous, 0.37 MBq, 4 h | 0.19 ± 0.13 %ID/g |
| N=C(N)NCCC[C@@H]1NC(=O)[C@H](CCCCNC(=O)CNC(=O)CNC(=O)CNC(=O)CC[C@H](NC(=O)CNC(=O)CNC(=O)CNC(=O)CC[C@H](NC(=O)CN2CCN(CC(=O)O)CCN(CC(=O)O)CCN(CC(=O)O)CC2)C(=O)NCC(=O)NCC(=O)NCC(=O)N[C@@H](CCC(=O)NCC(=O)NCC(=O)NCC(=O)NCCCC[C@@H]2NC(=O)[C@@H](Cc3ccccc3)NC(=O)[C@H](CC(=O)O)NC(=O)CNC(=O)[C@H](CCCNC(=N)N)NC2=O)C(=O)NCC(=O)NCC(=O)NCC(=O)NCCCC[C@@H]2NC(=O)[C@@H](Cc3ccccc3)NC(=O)[C@H](CC(=O)O)NC(=O)CNC(=O)[C@H](CCCNC(=N)N)NC2=O)C(=O)NCC(=O)NCC(=O)NCC(=O)NCCCC[C@@H]2NC(=O)[C@@H](Cc3ccccc3)NC(=O)[C@H](CC(=O)O)NC(=O)CNC(=O)[C@H](CCCNC(=N)N)NC2=O)NC(=O)[C@@H](Cc2ccccc2)NC(=O)[C@H](CC(=O)O)NC(=O)CNC1=O [indium-111 labelled] | – | female athymic nu/nu mice, eyes | intravenous, 0.5 h | 1.2 ± 0.6 %ID/g |
| Cc1cc(-c2ccc(NC(=O)[C@H](CCCCNC(=O)CCOCCOCCC(=O)N[C@H](Cc3ccccc3)C(=O)N[C@H]3CSSC[C@@H](C(=O)N[C@H](C(=O)O)[C@@H](C)O)NC(=O)[C@H]([C@@H](C)O)NC(=O)[C@H](CCCCN)NC(=O)[C@@H](Cc4c[nH]c5ccccc45)NC(=O)[C@H](Cc4ccc(O)cc4)NC3=O)NC(=O)CN3CCN(CC(=O)O)CCN(CC(=O)O)CCN(CC(=O)O)CC3)c(C)c2)ccc1N=Nc1ccc2c(S(=O)(=O)O)cc(S(=O)(=O)O)c(N)c2c1O [lutetium-177 labelled] | – | BALB/c nude mice, male, AR-42J tumour, kidneys | intravenous, 1.48 MBq | 12.8 ± 5.25 %ID/g |

Some of these lines once more:
| SMILES | assay | system | conditions | tissue uptake |
| --- | --- | --- | --- | --- |
| CC(C)C[C@@H](NC(=O)[C@@H](CCC(=O)O)NC(=O)[C@@H](CC(C)C)NC(=O)[C@@H](CC(C)C)NC(=O)[C@@H](CC(C)C)NC(=O)[C@H](NC(=O)[C@@H](CCC(=O)O)NC(=O)[C@H](NC(=O)[C@H]1CCCN1C(=O)[C@@H](Cc1ccccc1)NC(=O)[C@@H](CC(C)C)NC(=O)[C@@H](Cc1c[nH]c2ccccc12)NC(=O)[C@@H](CCC(=O)O)NC(=O)[C@@H](CC(C)C)NC(=O)[C@@H](Cc1ccc(O)cc1)NC(=O)[C@@H](CCCNC(=N)N)NC(=O)[C@@H](C)NC(=O)[C@@H](Cc1c[nH]c2ccccc12)NC(=O)[C@H]1CCCN1C(=O)[C@@H](CC(N)=O)NC(=O)[C@@H](CCC(N)=O)NC(=O)[C@@H](CCC(=O)O)NC(=O)[C@@H](CCC(=O)O)NC(=O)[C@@H](CSC1CC(=O)N(CCNC(=O)CN2CCN(CC(=O)O)CCN(CC(=O)O)CC2)C1=O)NC(=O)[C@@H](C)N)[C@H](C)O)[C@H](C)O)C(=O)O (some centres unmarked) [copper-64 labelled] | – | BALB/c mice, female, 4T1 orthotopic tumour, small intestine | intravenous, 4 h | 6.37 ± 0.11 %ID/g |
| N=C(N)NCCC[C@@H]1NC(=O)[C@H](CCCCNC(=O)CC[C@H](NC(=O)CC[C@H](NC(=O)CN2CCN(CC(=O)O)CCN(CC(=O)O)CCN(CC(=O)O)CC2)C(=O)N[C@@H](CCC(=O)NCCCC[C@@H]2NC(=O)[C@@H](Cc3ccccc3)NC(=O)[C@H](CC(=O)O)NC(=O)CNC(=O)[C@H](CCCNC(=N)N)NC2=O)C(=O)NCCCC[C@@H]2NC(=O)[C@@H](Cc3ccccc3)NC(=O)[C@H](CC(=O)O)NC(=O)CNC(=O)[C@H](CCCNC(=N)N)NC2=O)C(=O)NCCCC[C@@H]2NC(=O)[C@@H](Cc3ccccc3)NC(=O)[C@H](CC(=O)O)NC(=O)CNC(=O)[C@H](CCCNC(=N)N)NC2=O)NC(=O)[C@@H](Cc2ccccc2)NC(=O)[C@H](CC(=O)O)NC(=O)CNC1=O [indium-111 labelled] | – | female athymic nu/nu mice, blood | intravenous, 24 h | 0.04 ± 0.01 %ID/g |
